Results collected from several papers.
Lines come from different studies, so protocols differ. Several values in a cell are separate wells, animals, samples, runs or records. ± marks the error that the study gave.
CACNA1I: Voltage-dependent T-type calcium channel subunit alpha-1I (CACNA1I, Homo sapiens, UniProt Q9P0X4)
MGLL: Monoglyceride lipase (MGLL, Homo sapiens, UniProt Q99685)
EPHX2: Bifunctional epoxide hydrolase 2 (EPHX2, Homo sapiens, UniProt P34913)
RELA: Transcription factor p65 (RELA, Homo sapiens, UniProt Q04206)
Tpo: Thyroid peroxidase (Tpo, Rattus norvegicus, UniProt P14650)
APC: Adenomatous polyposis coli protein (APC, Homo sapiens, UniProt P25054)
gag-pol integrase: Gag-Pol polyprotein, integrase (gag-pol, Human immunodeficiency virus 1, UniProt P12497)
HDAC6: Protein deacetylase HDAC6 (HDAC6, Homo sapiens, UniProt Q9UBN7)

Substance	target	assay	system	conditions	IC50
C[C@@H](CNCc1ccccc1)N1C[C@H](CCCNC(=N)N)N(CCc2cccc(F)c2)C1=S	GABAA receptor agonist site	binding, radioligand displacement	–	–	> 1000 nM
CC1(C)S[C@@H]2[C@H](/N=C/N3CCCCCC3)C(=O)N2[C@H]1C(=O)O	PA3047 (Pseudomonas aeruginosa, UniProt Q9HZG1)	binding, Bocillin FL competition	Pseudomonas aeruginosa 1771 membranes	PBP 4, added: Bocillin FL 100 µM	> 39900 nM
COC(=O)C1=C(C)NC(C)=C([N+](=O)[O-])[C@H]1c1ccccc1C(F)(F)F	CACNA1I	inhibitor, FLIPR calcium	HEK293 with GCaMP6s-CAAX, Kir2.3	added: KCl at EC90	16000 nM
O=C(OC(C(F)(F)F)C(F)(F)F)N1CCC(CCn2ccc3cc(F)ccc32)CC1	MGLL	enzyme activity, inhibitor	–	–	380 nM
O=C(Nc1cc(C(=O)Nc2ccc(S(=O)(=O)O)cc2S(=O)(=O)O)cc(C(=O)Nc2ccc(S(=O)(=O)O)cc2S(=O)(=O)O)c1)Nc1cc(C(=O)Nc2ccc(S(=O)(=O)O)cc2S(=O)(=O)O)cc(C(=O)Nc2ccc(S(=O)(=O)O)cc2S(=O)(=O)O)c1	Transcription factor Sp1 (Homo sapiens, UniProt P08047)	DNA binding, inhibitor, TR-FRET	–	added: FAM-labelled oligonucleotide 100 nM	24.7 nM
O=C(ON1C(=O)CCC1=O)N1CC(N2CCN(C(=O)c3nccs3)CC2)C1	Monoglyceride lipase (Rattus norvegicus, UniProt Q8R431)	enzyme activity, inhibitor	–	with preincubation	27.5 nM
C[C@]12C[C@@H]3C[C@](C)(C1)C[C@@](NC(=O)Nc1ccc(CN4CCC[C@H](C(=O)NCCCC(=O)NO)C4)cc1F)(C3)C2	EPHX2	enzyme activity, inhibitor, fluorescence	–	–	1 nM
COC(=O)C1=C(C)NC(C)=C([N+](=O)[O-])[C@H]1c1ccccc1C(F)(F)F	Voltage-dependent P/Q-type calcium channel subunit alpha-1A, with β4/α2δ1 (Homo sapiens, UniProt O00555)	calcium current, blocker, automated patch clamp	holding potential -90 mV	last pulse of train, added: 0.1 Hz pulse train	10000 ± 2600 nM
O=C(C=Cc1ccco1)Nc1cccc(-c2nnc(C3CCCCC3)o2)c1	α-amylase	enzyme activity, inhibitor	–	–	5940 nM
O=C(O)c1cc2cc(-c3ccccc3)ccc2c(I)c1O	Glutamate NMDA receptor; Grin1/Grin2c (Rattus norvegicus, UniProt P35439+Q00961)	ion current, two-electrode voltage clamp	–	oocytes	4950 nM
CC1(C)c2cc3cc(-c4ccc(O)cc4O)c(=O)oc3cc2OC1CO (stereo not drawn)	RELA	NF-κB activity, inhibitor	–	–	700 nM
COc1ccc2c(ccn2CC2CCN(C(=O)OC(C(F)(F)F)C(F)(F)F)CC2)c1	MGLL	enzyme activity, inhibitor	–	–	660 nM
COC(=O)CCO[C@@H]1CC(=O)[C@@]2(C)CC[C@@H]3c4ccc(OC)cc4CC[C@H]3[C@H]12	HSD17B1 (Homo sapiens, UniProt P14061)	enzyme activity, inhibitor, radiometric	–	–	2200 to 5100 nM
C[C@]12C[C@@H]3C[C@](C)(C1)C[C@@](Nc1c(Nc4ccc(CN5CCC[C@H](C(=O)NCCCCCC(=O)NO)C5)cc4F)c(=O)c1=O)(C3)C2	EPHX2	enzyme activity, inhibitor, fluorescence	–	–	157 nM
NS(=O)(=O)c1ccc(N2N=C(C(F)(F)F)C[C@H]2c2ccc(F)cc2F)cc1	Prostaglandin G/H synthase 1 (Canis lupus familiaris, UniProt Q8HZR1)	TXB2 formation, inhibitor	clotting dog whole blood	1 h, 37 °C	23900 nM
COc1ccccc1-c1cn(CC2CC2)c2ncnc(N)c12	CDPK1 (Plasmodium falciparum, UniProt P62344)	enzyme activity, inhibitor	–	–	> 2000 nM
O=C1/C(=C/c2ccccc2)C(N2CCOCC2)c2ccccc21 (stereo not drawn)	Dual specificity protein phosphatase 6 (Homo sapiens, UniProt Q16828)	ERK phosphorylation restoration, inhibitor, chemical complementation	HeLa transfected with c-Myc-DUSP6	15 min, added: TPA	50800 ± 4100 nM
O=C(CCCCCCNC(=O)[C@H]1CCCN(C(=O)c2ccc(NC(=O)Nc3ccc(F)c(C(F)(F)F)c3)c(F)c2)C1)NO	EPHX2	enzyme activity, inhibitor, fluorescence	–	–	0.4 nM
Nc1ncnc2c1ncn2[C@@H]1O[C@H](COP(=O)(O)OP(=O)(O)C(Cl)(Cl)P(=O)(O)O)[C@@H](O)[C@H]1O	PRKCE (Homo sapiens, UniProt Q02156)	enzyme activity, inhibitor, HotSpot kinase	–	added: ATP 1 µM	90 nM
Cc1ccc(S(=O)(=O)Nc2cccc(-c3nnc(C4CCCCC4)o3)c2)cc1	α-amylase	enzyme activity, inhibitor	–	–	6010 nM
O=C(Nc1ccn(Cc2ccc(O)cc2C(F)(F)F)n1)c1c(F)cccc1F	Calcium release-activated calcium channel protein 1, with STIM1 (ORAI1, Homo sapiens, UniProt Q96D31)	STIM1-mediated current, inhibitor, whole-cell patch clamp	HEK293 cells	estimated from single concentrations	4100 nM
C=CCc1ccc(O)c(-c2cc(CC=C)ccc2O)c1	mitochondrial complex I	complex I-dependent oxygen consumption rate, inhibitor	A-375	24 h	62000 nM
C[C@]12CC3CC(Nc4c(Nc5ccc(CN6CCC[C@H](C(=O)NCCCC(=O)NO)C6)cc5)c(=O)c4=O)(C1)C[C@@](C)(C3)C2	EPHX2	enzyme activity, inhibitor, fluorescence	–	–	37.7 nM
O=C(O[C@@H]1Cc2c(O)cc(O)cc2O[C@@H]1c1cc(O)c(O)c(O)c1)c1cc(O)c(O)c(O)c1	Tpo	tyrosine iodination, LC-MS/MS	rat thyroid microsomes	added: KI 300 µM, H2O2 40 µM	270 nM
O=C(Nc1cc(Cl)c(F)c(Cl)c1)c1cc(S(=O)(=O)N2CCOCC2)c(Cl)cc1Cl	LPAR2 (Homo sapiens, UniProt Q9HBW0)	Ca2+ mobilization, antagonist	MEF	added: LPA at EC50	> 100000 nM
Cc1cccc(C(=O)N[C@@H](CCC(=O)O)C(=O)N[C@@H](Cc2ccc3ccccc3c2)C(=O)N[C@@H](CC(C)C)C(=O)NC2CC2c2ccccc2)c1 (stereo partly drawn)	APC	ligand displacement, FP	–	–	40600 nM

Substance	target	assay	system	conditions	IC50
O=C(O)/C(O)=C/C(=O)c1cn(Cc2ccc(F)cc2)c2ccc(F)cc2c1=O	gag-pol integrase	strand transfer, inhibitor, gel-based	–	added: Mg2+	140 nM
O=C(OC(C(F)(F)F)C(F)(F)F)N1CCC(CCn2ccc3cc(Cl)ccc32)CC1	MGLL	enzyme activity, inhibitor	–	–	310 nM
CCOC(=O)/C(O)=C/C(=O)c1cn(Cc2ccc(F)cc2)c2ccc(F)cc2c1=O	gag-pol integrase	strand transfer, inhibitor, gel-based	–	added: Mg2+	440 nM
CN(C)c1cc2c(Nc3ccc4c(cnn4Cc4ccccc4)c3)ncnc2cn1	SRC (Homo sapiens, UniProt P12931)	enzyme activity, inhibitor, ADP detection	–	–	> 10000 nM
CCCS(=O)(=O)Nc1cc(-c2cc(-c3ccc(N4CCNCC4)cc3)cnc2N)cc(OC)c1C	RIPK2 (Homo sapiens, UniProt O43353)	kinase activity, inhibitor, ADP-Glo	–	tested up to 10 µM	> 10000 nM
CC(C)(C)CCN1C[C@@H]2C(CNC(=O)c3cc(Cl)cc(Cl)c3)[C@@H]2C1 (stereo partly drawn)	CACNA1I	inhibitor, FLIPR calcium	HEK293 with GCaMP6s-CAAX, Kir2.3	added: KCl at EC90	77 nM
Cc1cc(Cl)ccc1OC(C)C(=O)Nc1cc(Cl)ccc1C(=O)O (stereo not drawn)	TRPM4 (Homo sapiens, UniProt Q8TD43)	ion flux, inhibitor, fluorescence	–	–	~1000 nM
CC(C)NCc1ccc(C[C@@H]2NC(=O)[C@H](N(C)C(=O)c3ccc4ccccc4c3)NC(=O)[C@H](Cc3ccccc3)NC(=O)[C@@H](N)CSSC[C@@H](C(=O)N[C@H](C(N)=O)[C@@H](C)O)NC(=O)[C@H](Cc3ccccc3)NC2=O)cc1	SSTR1 (Homo sapiens, UniProt P30872)	ligand displacement, radioligand	–	cell membranes	42 nM
CC(C)C[C@H](NC(=O)[C@H](Cc1ccc2ccccc2c1)NC(=O)[C@H](CCC(=O)O)NC(=O)c1c(F)c(F)c(F)c(F)c1F)C(=O)NC1CC1c1ccccc1 (stereo partly drawn)	APC	ligand displacement, FP	–	–	5940 nM
O=P(O)(O)Oc1ccc(OCCOc2ccc(OP(=O)(O)O)c(OP(=O)(O)O)c2)cc1OP(=O)(O)O	Inositol polyphosphate-5-phosphatase A (Homo sapiens, UniProt Q14642)	enzyme activity, inhibitor	–	added: Ins(1,4,5)P3 1.0 µM	> 10000 nM
Cc1cc(C(=O)N[C@@H](CC(=O)NC(C)(C)C)C(=O)N[C@@H](C)CC(=O)NCc2cccc3ccccc23)no1	Proteasome component C5/PSMB5 (Homo sapiens, UniProt P20618+P28074)	chymotrypsin-like activity, inhibitor	–	added: suc-LLVY-AMC	88400 ± 5810 nM
O=C1C=C2CC3(O)COc4c(ccc(O)c4O)C3=C2C=C1O (stereo not drawn)	firefly luciferase	ADP-Glo ADP processing, luminescence counter-screen	cell-free, no kinase	up to 77 µM, added: ADP 1.25 µM, ATP 11.25 µM	no inhibition
CC(C)COc1cccc(CC(=O)N2CCNc3nc(C(F)(F)F)ccc3[C@H]2CC(=O)O)c1	Neuromedin-B receptor (Rattus norvegicus, UniProt P24053)	ligand displacement, radioligand	–	–	> 3000 nM
CC(=O)N1CCN(C(=O)C(C)(C)NC(=O)Nc2ccc(C)cc2)CC1	Endoplasmic reticulum aminopeptidase 1, open conformation (ERAP1, Homo sapiens, UniProt Q9NZ08)	enzyme activity, inhibitor, fluorogenic	–	partial inhibition, added: L-AMC substrate	126000 nM
Cc1nc2ccccc2n1Cc1ccc(C(=O)NO)cc1	HDAC9 (Homo sapiens, UniProt Q9UKV0)	–	–	concentration not given	345 nM
O=C(Nc1cc(C(=O)Nc2ccc(S(=O)(=O)O)cc2S(=O)(=O)O)cc(C(=O)Nc2ccc(S(=O)(=O)O)cc2S(=O)(=O)O)c1)Nc1cc(C(=O)Nc2ccc(S(=O)(=O)O)cc2S(=O)(=O)O)cc(C(=O)Nc2ccc(S(=O)(=O)O)cc2S(=O)(=O)O)c1	human MBNL1	CUG repeat RNA binding, inhibitor, HTRF	–	added: biotin-(CUG)12 RNA	28200 nM
benzamide	HDAC6	enzyme activity, inhibitor, fluorogenic deacetylase	–	added: acetyl-lysine tripeptide-AMC substrate	> 30000 nM
CC1(C)c2cc(CC(=O)c3ccc(O)cc3O)c(O)cc2OC1CO (stereo not drawn)	RELA	NF-κB activity, inhibitor	–	–	> 20000 nM
COc1ccc2c(CC(=O)NCCCC[C@H](N)C(=O)N[C@@H](CCC(=O)O)C(=O)N[C@@H](Cc3ccc(CS(=O)(=O)O)cc3)C(=O)N[C@@H](CCC(=O)O)C(=O)N[C@@H](Cc3ccc(CS(=O)(=O)O)cc3)C(=O)N[C@@H](CC(C)C)C(=O)N[C@@H](CC(=O)O)C(=O)N[C@@H](Cc3ccc(CS(=O)(=O)O)cc3)C(=O)N[C@@H](CC(=O)O)C(=O)N[C@@H](Cc3ccccc3)C(=O)N[C@@H](CC(C)C)C(=O)N3CCC[C@H]3C(=O)N[C@@H](CCC(=O)O)C(=O)N[C@H](C(=O)N[C@@H](CCC(=O)O)C(=O)N3CCC[C@H]3C(=O)N[C@@H](CC(C)C)C(=O)O)[C@@H](C)O[C@H]3O[C@H](CO[C@@H]4O[C@H](CO)[C@@H](O[C@@H]5O[C@H](CO)[C@H](O)[C@H](O[C@]6(C(=O)O)C[C@H](O)[C@@H](NC(C)=O)[C@H]([C@H](O)[C@H](O)CO)O6)[C@H]5O)[C@H](O[C@@H]5O[C@@H](C)[C@@H](O)[C@@H](O)[C@@H]5O)[C@H]4NC(C)=O)[C@H](O)[C@H](O[C@@H]4O[C@H](CO)[C@H](O)[C@H](O)[C@H]4O)[C@H]3NC(C)=O)cc(=O)oc2c1	P-selectin (SELP, Homo sapiens, UniProt P16109)	chimera binding to neutrophils, inhibitor, flow cytometry	human neutrophils	added: SELP Fc chimera 2 µg/mL	~14000 nM
OC1CCCc2cc(OCCOc3ccccc3)ccc21 (stereo not drawn)	MAOB (Homo sapiens, UniProt P27338)	enzyme activity, inhibitor, fluorescence	–	–	68 nM
CCn1[c](=[Au-2]([Cl])([Cl])[Cl])n(CC)c2ccccc21	trxB (Escherichia coli, UniProt P0A9P4)	enzyme activity, inhibitor, absorbance	–	with preincubation	270 nM
CCCN(CCC)c1ccc(C=O)cc1	ALDH1A1 (Homo sapiens, UniProt P00352)	enzyme activity, inhibitor, spectrophotometry	purified human erythrocyte enzyme	pH 8.4, added: phenylacetaldehyde, 1 mM NAD	1200 ± 100 nM
CN(C)c1ccc(-c2ccc(Cn3cccc(O)c3=S)cc2)cc1	HDAC6	enzyme activity, inhibitor, SAMDI mass spectrometry	–	–	> 10000 nM
CC[C@H](c1ccc(O)cc1)[C@@H](CC)c1ccc(O)cc1	Tpo	enzyme activity, inhibitor, LC-MS/MS, measured: monoiodotyrosine	rat thyroid microsomes	added: L-tyrosine substrate	7190 nM and 10700 nM
8-prenylnaringenin	MGLL	enzyme activity, inhibitor	–	15 min preincubation	9500 nM
